Measured values of several laboratories.
Each numbered part is a random draw from the data of one study; scales do not carry over between parts. Several values in a cell are separate wells, animals, samples, runs or records.
Sequence of UniProt Q15759 (whole entry, looked up): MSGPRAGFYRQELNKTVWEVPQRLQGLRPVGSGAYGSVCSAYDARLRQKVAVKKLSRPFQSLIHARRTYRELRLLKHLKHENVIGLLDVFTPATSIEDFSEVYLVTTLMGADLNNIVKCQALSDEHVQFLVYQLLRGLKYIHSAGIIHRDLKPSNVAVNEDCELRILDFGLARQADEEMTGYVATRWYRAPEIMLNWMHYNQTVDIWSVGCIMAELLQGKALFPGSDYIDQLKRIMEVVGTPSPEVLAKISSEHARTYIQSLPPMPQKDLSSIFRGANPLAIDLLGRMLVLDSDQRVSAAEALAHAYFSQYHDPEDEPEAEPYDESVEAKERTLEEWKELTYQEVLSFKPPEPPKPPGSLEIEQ
Sequence of UniProt Q9H4B4 (whole entry, looked up): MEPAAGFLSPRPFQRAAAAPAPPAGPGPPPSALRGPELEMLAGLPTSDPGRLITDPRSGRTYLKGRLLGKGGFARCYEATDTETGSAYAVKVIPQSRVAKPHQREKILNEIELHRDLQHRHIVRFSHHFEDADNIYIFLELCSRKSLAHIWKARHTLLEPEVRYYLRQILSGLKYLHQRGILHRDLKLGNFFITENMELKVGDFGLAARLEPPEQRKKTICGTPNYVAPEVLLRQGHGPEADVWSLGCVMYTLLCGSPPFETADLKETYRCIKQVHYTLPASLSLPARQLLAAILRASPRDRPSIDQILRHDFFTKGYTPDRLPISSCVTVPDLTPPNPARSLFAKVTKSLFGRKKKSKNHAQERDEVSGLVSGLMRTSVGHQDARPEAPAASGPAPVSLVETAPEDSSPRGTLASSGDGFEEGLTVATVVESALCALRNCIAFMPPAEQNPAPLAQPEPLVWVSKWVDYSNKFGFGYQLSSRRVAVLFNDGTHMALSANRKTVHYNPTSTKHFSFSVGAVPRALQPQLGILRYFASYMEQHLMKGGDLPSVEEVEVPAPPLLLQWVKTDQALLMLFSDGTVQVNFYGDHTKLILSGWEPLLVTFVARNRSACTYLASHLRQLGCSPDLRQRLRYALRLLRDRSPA
Sequence of UniProt P42681 (whole entry, looked up): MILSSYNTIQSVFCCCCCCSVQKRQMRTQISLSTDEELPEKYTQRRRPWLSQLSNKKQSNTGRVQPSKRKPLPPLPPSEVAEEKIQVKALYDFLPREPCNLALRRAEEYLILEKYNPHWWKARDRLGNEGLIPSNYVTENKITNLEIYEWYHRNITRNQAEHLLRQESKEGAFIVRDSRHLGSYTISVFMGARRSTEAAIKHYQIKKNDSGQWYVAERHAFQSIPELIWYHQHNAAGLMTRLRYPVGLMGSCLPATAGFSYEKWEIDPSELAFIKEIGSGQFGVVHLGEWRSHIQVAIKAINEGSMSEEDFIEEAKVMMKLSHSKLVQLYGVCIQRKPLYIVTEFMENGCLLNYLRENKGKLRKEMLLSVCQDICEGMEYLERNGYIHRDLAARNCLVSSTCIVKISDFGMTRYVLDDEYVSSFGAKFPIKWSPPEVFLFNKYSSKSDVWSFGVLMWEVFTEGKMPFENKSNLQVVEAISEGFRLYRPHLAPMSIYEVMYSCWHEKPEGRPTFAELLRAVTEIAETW

Study 1 — cell line: A-375; tested at: 100 µM; time: 18 h
| Compound | viability [%] |
| --- | --- |
| CC[C@H]1OC(=O)[C@H](C)[C@@H](O[C@H]2C[C@@](C)(OC)[C@@H](O)[C@H](C)O2)[C@H](C)[C@@H](O[C@@H]2O[C@H](C)C[C@H](N(C)C)[C@H]2O)[C@](C)(OC)C[C@@H](C)C(=O)[C@H](C)[C@@H](O)[C@]1(C)O | 78 |
| CC(=O)Nc1cccc(-n2c(=O)n(C3CC3)c(=O)c3c(Nc4ccc(I)cc4F)n(C)c(=O)c(C)c32)c1 | 87.1 |
| CC[C@H](C)[C@H](N)C(=O)O | 97.5 |
| Brc1c(NC2=NCCN2)ccc2nccnc12 | 102 |
| COc1cc(C(=O)N2CCOCC2)cc(OC)c1OC | 107 |
| Cc1cccn2c(=O)c(-c3nnn[nH]3)cnc12 | 97.7 |

Study 2 — read-out: enzyme activity; mode: inhibitor; tested at: 77 µM; baseline: untreated
Target: DNA polymerase theta, ATPase domain (POLQ, Homo sapiens, UniProt O75417)
Sequence of UniProt O75417 (whole entry, unmodified, looked up): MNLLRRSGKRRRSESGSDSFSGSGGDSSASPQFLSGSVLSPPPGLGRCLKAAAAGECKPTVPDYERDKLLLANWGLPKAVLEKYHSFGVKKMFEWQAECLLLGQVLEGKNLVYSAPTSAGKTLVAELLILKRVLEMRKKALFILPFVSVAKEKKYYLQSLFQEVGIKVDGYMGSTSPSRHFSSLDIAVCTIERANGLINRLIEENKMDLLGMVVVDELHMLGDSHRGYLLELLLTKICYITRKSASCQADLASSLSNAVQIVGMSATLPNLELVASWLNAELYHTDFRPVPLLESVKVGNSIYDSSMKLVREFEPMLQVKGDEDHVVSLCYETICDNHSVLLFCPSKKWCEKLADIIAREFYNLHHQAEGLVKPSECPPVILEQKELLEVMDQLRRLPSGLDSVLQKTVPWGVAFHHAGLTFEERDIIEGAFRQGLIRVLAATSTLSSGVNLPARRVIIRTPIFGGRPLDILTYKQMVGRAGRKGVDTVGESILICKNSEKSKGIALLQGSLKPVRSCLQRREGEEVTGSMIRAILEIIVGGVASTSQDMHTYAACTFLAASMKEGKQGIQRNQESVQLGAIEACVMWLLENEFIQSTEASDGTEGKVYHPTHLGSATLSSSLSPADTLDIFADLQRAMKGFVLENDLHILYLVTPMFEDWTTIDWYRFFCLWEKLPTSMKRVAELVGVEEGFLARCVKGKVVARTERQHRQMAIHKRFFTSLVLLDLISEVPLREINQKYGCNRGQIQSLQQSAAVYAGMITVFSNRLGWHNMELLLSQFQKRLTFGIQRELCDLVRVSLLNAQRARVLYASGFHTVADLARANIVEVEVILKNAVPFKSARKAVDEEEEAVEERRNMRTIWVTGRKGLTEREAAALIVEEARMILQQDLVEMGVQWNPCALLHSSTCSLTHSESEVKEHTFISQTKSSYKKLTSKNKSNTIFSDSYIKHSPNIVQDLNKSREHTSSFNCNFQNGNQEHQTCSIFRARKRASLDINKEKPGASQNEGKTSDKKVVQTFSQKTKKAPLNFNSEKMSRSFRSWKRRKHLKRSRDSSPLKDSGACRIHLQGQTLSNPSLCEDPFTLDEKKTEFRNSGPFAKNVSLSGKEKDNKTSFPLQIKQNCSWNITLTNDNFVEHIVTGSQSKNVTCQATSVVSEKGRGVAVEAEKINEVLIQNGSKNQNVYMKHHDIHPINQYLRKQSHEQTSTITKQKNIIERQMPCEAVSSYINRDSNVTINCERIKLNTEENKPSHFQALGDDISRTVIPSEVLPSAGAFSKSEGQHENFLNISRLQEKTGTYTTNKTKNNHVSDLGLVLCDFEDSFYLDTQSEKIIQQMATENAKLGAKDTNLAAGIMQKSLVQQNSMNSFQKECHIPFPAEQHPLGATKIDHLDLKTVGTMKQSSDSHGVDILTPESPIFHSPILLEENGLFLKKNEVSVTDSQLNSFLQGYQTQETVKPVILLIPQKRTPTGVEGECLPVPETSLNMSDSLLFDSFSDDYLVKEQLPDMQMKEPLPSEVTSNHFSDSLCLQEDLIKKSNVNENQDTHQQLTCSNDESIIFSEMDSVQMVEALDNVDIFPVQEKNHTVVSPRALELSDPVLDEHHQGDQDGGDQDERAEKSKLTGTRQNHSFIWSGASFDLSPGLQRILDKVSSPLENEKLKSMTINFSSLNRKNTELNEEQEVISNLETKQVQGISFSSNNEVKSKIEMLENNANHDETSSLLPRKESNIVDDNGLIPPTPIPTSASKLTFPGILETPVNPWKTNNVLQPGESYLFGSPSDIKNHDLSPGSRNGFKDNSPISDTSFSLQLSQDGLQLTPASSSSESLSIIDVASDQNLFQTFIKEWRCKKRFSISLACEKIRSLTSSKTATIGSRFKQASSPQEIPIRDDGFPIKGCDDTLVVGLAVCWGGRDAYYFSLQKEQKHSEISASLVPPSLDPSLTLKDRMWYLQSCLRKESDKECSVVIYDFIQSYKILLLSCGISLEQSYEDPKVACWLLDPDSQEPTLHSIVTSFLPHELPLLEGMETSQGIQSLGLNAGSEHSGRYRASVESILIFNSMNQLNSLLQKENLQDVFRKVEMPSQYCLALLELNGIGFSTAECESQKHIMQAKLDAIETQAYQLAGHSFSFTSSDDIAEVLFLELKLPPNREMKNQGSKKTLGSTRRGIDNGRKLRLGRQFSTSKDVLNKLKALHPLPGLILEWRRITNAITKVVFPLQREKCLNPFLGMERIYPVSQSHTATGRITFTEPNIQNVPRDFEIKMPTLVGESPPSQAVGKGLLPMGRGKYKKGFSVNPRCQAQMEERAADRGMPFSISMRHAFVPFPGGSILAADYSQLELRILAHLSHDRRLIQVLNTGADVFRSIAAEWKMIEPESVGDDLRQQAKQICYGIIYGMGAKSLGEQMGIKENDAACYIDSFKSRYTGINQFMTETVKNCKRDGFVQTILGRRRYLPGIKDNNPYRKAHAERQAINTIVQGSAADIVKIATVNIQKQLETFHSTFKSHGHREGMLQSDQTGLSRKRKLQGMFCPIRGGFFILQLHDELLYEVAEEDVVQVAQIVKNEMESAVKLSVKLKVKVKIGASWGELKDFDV
| SMILES | remaining activity |
| --- | --- |
| COc1ccc2cc1Oc1ccc(cc1)C[C@H]1c3cc(c(OC)cc3CCN1C)Oc1c(OC)c(OC)cc3c1[C@H](C2)N(C)CC3 | 101% and 88.2% |
| COC[C@H](NC(=O)c1cnc(C)s1)C(=O)N[C@@H](COC)C(=O)N[C@@H](Cc1ccccc1)C(=O)[C@@]1(C)CO1 | 95.5% |
| CCC(=O)OCC(=O)[C@@]1(OC(=O)CC)[C@H](C)C[C@H]2[C@H]3[C@H]([C@@H](O)C[C@@]21C)[C@@]1(C)C=CC(=O)C=C1C[C@H]3Cl | 96% |
| CCC(Cc1c(I)cc(I)c(N)c1I)C(=O)O (centres unmarked) | 202% |
| Nc1nc(Cl)nc2c1ncn2[C@H]1C[C@H](O)[C@@H](CO)O1 | 99% |
| O=C(O)P(=O)(O)O | 99.5% |
| CCC[C@H](NC(=O)/C(C#N)=C/c1cccc(Br)n1)c1ccccc1 | 83.9% |
| Nc1ccn([C@@H]2O[C@H](CO)[C@@H](O)[C@H]2O)c(=O)n1 | 80.7% |
| COc1ccc2c(OC)c3ccoc3nc2c1OC | 104% |
| CO[C@H]1/C=C/O[C@@]2(C)Oc3c(C)c(O)c4c(O)c(c5c(nc6cc(C)ccn65)c4c3C2=O)NC(=O)/C(C)=C\C=C\[C@H](C)[C@H](O)[C@@H](C)[C@@H](O)[C@@H](C)[C@H](OC(C)=O)[C@@H]1C | 103% |

Study 3 — read-out: cell-free assay; method: competition with immobilised ligand; tested at: 1 µM
Compound: CCC(=O)N[C@H]1CC[C@@H](C(=O)N(C)c2ccc(-c3nc4ccccc4o3)cc2)C1
| target | remaining binding [%] |
| --- | --- |
| FLT3 (Homo sapiens, UniProt P36888) | 78 |
| MAPK11 (Homo sapiens, UniProt Q15759) | 82 |
| PIK3CA (Homo sapiens, UniProt P42336, H1047L) | 78 |
| PLK3 (Homo sapiens, UniProt Q9H4B4) | 74 |
| MARK2 (Homo sapiens, UniProt Q7KZI7) | 100 |
| MAP4K2 (Homo sapiens, UniProt Q12851) | 96 |
| CDK17 (Homo sapiens, UniProt Q00537) | 100 |
| EGFR (Homo sapiens, UniProt P00533, G719C) | 100 |
| SGK2 (Homo sapiens, UniProt Q9HBY8) | 93 |
| PIKFYVE (Homo sapiens, UniProt Q9Y2I7) | 94 |

Study 4 — Compound: CC(C)N(CCC(=O)c1ccc2ccccc2c1)Cc1ccccc1; read-out: enzyme activity; mode: inhibitor; tested at: 0.5 µM; baseline: control
| target | remaining activity [%] |
| --- | --- |
| TXK (Homo sapiens, UniProt P42681) | 97.1 |
| Cyclin-dependent kinase 9, with cyclin K (CDK9, Homo sapiens, UniProt P50750) | 99.5 |
| MAPK11 (Homo sapiens, UniProt Q15759) | 108 |
| Cyclin-dependent kinase 1, with cyclin A (CDK1, Homo sapiens, UniProt P06493) | 92.9 |
| TLK2 (Homo sapiens, UniProt Q86UE8) | 104 |
| AKT2 (Homo sapiens, UniProt P31751) | 96.5 |
| MINK1 (Homo sapiens, UniProt Q8N4C8) | 101 |
| PRKG2 (Homo sapiens, UniProt Q13237) | 139 |
| PLK3 (Homo sapiens, UniProt Q9H4B4) | 105 |
| NEK3 (Homo sapiens, UniProt P51956) | 101 |
| MET (Homo sapiens, UniProt P08581) | 110 |
| GRK4 (Homo sapiens, UniProt P32298) | 94.9 |
| KDR (Homo sapiens, UniProt P35968) | 98.9 |
| CDC42BPB (Homo sapiens, UniProt Q9Y5S2) | 95 |
| PAK3 (Homo sapiens, UniProt O75914) | 98.6 |
